{"data": "Experimental data of several laboratories", "note": "Each numbered part is a random draw from the data of one study; scales do not carry over between parts.", "sequence of UniProt Q15303 (whole entry, looked up)": "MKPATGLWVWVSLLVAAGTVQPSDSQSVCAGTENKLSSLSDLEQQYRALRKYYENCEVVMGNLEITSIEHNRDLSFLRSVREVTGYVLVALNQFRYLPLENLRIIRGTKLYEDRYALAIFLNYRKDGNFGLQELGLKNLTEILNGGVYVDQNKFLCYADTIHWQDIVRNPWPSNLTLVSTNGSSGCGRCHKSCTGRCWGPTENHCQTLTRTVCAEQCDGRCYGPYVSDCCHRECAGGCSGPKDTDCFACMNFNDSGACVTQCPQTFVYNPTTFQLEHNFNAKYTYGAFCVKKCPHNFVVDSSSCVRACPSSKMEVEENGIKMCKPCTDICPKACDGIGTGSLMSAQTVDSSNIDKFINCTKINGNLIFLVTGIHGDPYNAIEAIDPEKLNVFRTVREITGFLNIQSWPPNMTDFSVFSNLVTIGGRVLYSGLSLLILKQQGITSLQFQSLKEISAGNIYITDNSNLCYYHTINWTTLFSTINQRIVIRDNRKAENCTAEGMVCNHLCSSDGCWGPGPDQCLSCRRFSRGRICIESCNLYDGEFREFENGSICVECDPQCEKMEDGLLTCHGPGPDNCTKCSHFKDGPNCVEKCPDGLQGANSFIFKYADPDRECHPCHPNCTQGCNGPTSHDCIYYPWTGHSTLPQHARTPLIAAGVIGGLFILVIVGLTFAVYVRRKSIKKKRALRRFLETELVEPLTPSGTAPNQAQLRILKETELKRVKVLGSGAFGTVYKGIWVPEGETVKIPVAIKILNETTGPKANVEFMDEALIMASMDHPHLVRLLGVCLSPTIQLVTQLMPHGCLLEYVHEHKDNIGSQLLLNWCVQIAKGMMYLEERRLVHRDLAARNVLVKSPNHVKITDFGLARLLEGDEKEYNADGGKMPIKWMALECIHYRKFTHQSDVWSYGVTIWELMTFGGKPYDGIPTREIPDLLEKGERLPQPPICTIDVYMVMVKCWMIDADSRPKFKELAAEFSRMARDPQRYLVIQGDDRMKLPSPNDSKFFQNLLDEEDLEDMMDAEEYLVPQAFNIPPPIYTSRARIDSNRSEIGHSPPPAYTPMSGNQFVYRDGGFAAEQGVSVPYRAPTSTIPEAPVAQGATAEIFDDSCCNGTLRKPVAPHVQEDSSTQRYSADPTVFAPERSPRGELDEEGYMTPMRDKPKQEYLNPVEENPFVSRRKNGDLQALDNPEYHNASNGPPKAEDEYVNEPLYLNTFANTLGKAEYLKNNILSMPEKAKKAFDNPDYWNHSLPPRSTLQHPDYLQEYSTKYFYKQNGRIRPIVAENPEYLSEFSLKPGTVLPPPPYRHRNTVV", "sequence of UniProt Q16513 (whole entry, looked up)": "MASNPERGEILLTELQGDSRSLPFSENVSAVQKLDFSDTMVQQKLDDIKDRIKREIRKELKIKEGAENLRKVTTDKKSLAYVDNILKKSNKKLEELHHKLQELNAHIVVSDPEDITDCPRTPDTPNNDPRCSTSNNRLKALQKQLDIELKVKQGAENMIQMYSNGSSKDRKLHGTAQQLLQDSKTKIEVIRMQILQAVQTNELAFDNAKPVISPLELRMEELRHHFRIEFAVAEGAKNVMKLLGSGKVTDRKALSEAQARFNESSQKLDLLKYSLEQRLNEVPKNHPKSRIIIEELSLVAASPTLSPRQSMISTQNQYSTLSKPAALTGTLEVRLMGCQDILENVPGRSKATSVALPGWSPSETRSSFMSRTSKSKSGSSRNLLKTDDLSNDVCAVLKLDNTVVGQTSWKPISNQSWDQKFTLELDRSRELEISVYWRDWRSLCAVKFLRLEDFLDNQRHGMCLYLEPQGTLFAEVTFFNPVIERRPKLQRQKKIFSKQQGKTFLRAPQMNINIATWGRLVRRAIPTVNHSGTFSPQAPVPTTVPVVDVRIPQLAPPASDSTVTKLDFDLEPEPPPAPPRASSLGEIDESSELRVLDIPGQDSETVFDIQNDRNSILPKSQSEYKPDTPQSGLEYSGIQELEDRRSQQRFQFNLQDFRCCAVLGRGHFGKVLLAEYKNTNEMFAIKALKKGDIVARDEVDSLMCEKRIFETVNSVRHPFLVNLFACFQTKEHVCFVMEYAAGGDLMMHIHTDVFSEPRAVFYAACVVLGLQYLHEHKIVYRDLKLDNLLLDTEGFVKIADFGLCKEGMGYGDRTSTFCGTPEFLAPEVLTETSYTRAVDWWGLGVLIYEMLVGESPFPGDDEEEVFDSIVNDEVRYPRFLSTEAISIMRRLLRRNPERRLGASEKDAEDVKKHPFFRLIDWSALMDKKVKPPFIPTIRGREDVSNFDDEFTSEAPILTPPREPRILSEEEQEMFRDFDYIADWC", "sequence of UniProt Q02779 (whole entry, looked up)": "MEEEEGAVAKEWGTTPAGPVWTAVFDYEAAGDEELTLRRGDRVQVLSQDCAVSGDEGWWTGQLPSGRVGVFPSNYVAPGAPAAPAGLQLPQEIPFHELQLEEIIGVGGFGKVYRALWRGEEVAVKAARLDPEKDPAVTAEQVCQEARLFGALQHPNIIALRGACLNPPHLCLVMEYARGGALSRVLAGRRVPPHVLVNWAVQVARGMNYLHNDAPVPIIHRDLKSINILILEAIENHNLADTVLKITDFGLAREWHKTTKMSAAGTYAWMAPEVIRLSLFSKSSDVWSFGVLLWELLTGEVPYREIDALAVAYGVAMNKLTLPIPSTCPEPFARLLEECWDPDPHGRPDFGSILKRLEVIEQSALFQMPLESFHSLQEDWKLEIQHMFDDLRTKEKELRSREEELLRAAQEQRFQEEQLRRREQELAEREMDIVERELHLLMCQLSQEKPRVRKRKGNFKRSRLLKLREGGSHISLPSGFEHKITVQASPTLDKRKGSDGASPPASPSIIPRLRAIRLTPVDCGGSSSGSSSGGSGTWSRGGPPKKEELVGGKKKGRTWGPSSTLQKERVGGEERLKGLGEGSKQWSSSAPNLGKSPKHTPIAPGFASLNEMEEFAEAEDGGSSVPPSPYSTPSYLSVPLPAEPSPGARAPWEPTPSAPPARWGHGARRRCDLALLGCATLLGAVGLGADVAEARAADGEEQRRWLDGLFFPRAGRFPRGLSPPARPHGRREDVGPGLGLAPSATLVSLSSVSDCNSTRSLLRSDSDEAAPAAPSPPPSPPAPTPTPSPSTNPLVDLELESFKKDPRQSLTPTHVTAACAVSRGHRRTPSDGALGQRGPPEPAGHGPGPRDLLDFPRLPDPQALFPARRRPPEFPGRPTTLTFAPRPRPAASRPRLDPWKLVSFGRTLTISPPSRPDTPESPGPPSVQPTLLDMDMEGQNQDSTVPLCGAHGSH", "sequence of UniProt Q13464 (whole entry, looked up)": "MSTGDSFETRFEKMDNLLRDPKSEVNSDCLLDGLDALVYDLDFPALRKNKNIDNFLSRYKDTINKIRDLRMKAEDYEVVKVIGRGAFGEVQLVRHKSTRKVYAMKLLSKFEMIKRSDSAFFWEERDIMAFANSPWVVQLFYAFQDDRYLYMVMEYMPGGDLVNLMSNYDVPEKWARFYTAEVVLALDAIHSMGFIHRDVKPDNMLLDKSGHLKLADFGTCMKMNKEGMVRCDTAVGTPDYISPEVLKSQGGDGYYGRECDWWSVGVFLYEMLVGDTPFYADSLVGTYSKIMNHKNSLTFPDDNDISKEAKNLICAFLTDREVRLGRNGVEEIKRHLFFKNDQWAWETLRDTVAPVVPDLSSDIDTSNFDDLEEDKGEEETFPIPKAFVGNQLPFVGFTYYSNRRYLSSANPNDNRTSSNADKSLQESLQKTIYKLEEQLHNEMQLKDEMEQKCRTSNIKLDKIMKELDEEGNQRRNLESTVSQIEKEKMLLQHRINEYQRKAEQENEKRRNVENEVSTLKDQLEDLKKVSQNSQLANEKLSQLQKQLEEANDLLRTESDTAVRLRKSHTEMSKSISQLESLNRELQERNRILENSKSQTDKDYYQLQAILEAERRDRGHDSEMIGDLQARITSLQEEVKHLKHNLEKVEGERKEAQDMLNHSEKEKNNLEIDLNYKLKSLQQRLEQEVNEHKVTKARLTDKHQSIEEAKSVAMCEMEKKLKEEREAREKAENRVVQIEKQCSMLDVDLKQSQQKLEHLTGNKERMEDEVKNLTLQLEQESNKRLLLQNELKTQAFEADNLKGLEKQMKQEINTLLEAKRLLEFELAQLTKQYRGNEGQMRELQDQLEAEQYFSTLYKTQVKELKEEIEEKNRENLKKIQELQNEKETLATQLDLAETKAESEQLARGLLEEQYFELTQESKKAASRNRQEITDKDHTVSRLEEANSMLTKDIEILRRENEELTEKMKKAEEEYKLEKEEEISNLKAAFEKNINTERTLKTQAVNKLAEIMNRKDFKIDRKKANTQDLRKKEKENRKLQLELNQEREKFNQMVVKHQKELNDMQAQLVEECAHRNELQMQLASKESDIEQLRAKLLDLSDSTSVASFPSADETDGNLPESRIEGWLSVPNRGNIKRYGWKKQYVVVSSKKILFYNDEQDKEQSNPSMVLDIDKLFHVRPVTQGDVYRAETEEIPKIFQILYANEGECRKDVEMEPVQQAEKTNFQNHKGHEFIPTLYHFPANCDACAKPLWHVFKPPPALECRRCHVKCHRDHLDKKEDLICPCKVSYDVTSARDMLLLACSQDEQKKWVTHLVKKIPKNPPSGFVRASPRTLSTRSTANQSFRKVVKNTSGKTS", "sequence of UniProt Q9Y6E0 (whole entry, looked up)": "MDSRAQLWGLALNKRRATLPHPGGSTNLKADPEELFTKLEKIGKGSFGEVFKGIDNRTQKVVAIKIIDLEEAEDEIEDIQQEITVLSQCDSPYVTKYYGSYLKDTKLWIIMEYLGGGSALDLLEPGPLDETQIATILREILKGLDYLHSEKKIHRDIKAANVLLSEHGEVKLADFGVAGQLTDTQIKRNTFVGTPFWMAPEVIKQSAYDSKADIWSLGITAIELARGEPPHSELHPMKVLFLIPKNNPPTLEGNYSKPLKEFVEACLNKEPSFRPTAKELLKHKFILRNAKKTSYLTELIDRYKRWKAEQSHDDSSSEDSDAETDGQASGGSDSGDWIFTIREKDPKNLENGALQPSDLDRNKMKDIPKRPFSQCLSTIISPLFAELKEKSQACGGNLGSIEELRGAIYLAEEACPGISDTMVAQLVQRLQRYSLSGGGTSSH"}
{"data": "Set 1", "SMILES": "CCS(=O)(=O)c1cc2cc(C[C@@](O)(CC(C)(C)c3ccc(F)cc3C(N)=O)C(F)(F)F)[nH]c2cn1", "observed": "cell-free assay", "technique": "competition with immobilised ligand", "tested at": "1 µM"}
{"target": "Receptor tyrosine-protein kinase erbB-4 (ERBB4, Homo sapiens, UniProt Q15303)", "remaining binding": "100%"}
{"target": "Tyrosine-protein kinase ZAP-70 (ZAP70, Homo sapiens, UniProt P43403)", "remaining binding": "72%"}
{"target": "Serine/threonine-protein kinase TBK1 (TBK1, Homo sapiens, UniProt Q9UHD2)", "remaining binding": "87%"}
{"target": "Serine/threonine-protein kinase Nek9 (NEK9, Homo sapiens, UniProt Q8TD19)", "remaining binding": "83%"}
{"target": "Epidermal growth factor receptor (EGFR, Homo sapiens, UniProt P00533, L858R/T790M)", "remaining binding": "83%"}
{"target": "Serine/threonine-protein kinase TAO2 (TAOK2, Homo sapiens, UniProt Q9UL54)", "remaining binding": "76%"}
{"target": "Cyclin-dependent kinase 11A (CDK11A, Homo sapiens, UniProt Q9UQ88)", "remaining binding": "100%"}
{"target": "Serine/threonine-protein kinase 36 (STK36, Homo sapiens, UniProt Q9NRP7)", "remaining binding": "98%"}
{"target": "Serine/threonine-protein kinase WNK4 (WNK4, Homo sapiens, UniProt Q96J92)", "remaining binding": "84%"}
{"target": "Tyrosine-protein kinase ABL1, phosphorylated (ABL1, Homo sapiens, UniProt P00519, Y253F)", "remaining binding": "72%"}
{"target": "Hepatocyte growth factor receptor (MET, Homo sapiens, UniProt P08581, Y1235D)", "remaining binding": "100%"}
{"target": "Peripheral plasma membrane protein CASK (CASK, Homo sapiens, UniProt O14936)", "remaining binding": "100%"}
{"data": "Set 2", "Compound": "c1ccc(-c2[nH]ncc2-c2ccnc3ccccc23)nc1", "observed": "enzyme activity", "mode": "inhibitor", "tested at": "0.5 µM", "relative to": "control"}
{"target": "Serine/threonine-protein kinase MRCK beta (CDC42BPB, Homo sapiens, UniProt Q9Y5S2)", "remaining activity [%]": 102}
{"target": "Mitogen-activated protein kinase 11 (MAPK11, Homo sapiens, UniProt Q15759)", "remaining activity [%]": 106}
{"target": "Serine/threonine-protein kinase MARK2 (MARK2, Homo sapiens, UniProt Q7KZI7)", "remaining activity [%]": 102}
{"target": "Mitogen-activated protein kinase 14 (MAPK14, Homo sapiens, UniProt Q16539)", "remaining activity [%]": 96}
{"target": "Serine/threonine-protein kinase PAK 3 (PAK3, Homo sapiens, UniProt O75914)", "remaining activity [%]": 99.7}
{"target": "Cyclin-dependent kinase 9, with cyclin K (CDK9, Homo sapiens, UniProt P50750)", "remaining activity [%]": 98.7}
{"target": "Misshapen-like kinase 1 (MINK1, Homo sapiens, UniProt Q8N4C8)", "remaining activity [%]": 84.1}
{"target": "Dual specificity mitogen-activated protein kinase kinase 1 (MAP2K1, Homo sapiens, UniProt Q02750)", "remaining activity [%]": 93.7}
{"target": "Discoidin domain-containing receptor 2 (DDR2, Homo sapiens, UniProt Q16832)", "remaining activity [%]": 95.1}
{"target": "Cyclin-dependent kinase 1, with cyclin A (CDK1, Homo sapiens, UniProt P06493)", "remaining activity [%]": 82.7}
{"target": "Myosin-IIIb (MYO3B, Homo sapiens, UniProt Q8WXR4)", "remaining activity [%]": 91.7}
{"target": "Hepatocyte growth factor receptor (MET, Homo sapiens, UniProt P08581)", "remaining activity [%]": 94.1}
{"target": "Calcium/calmodulin-dependent protein kinase type IV (CAMK4, Homo sapiens, UniProt Q16566)", "remaining activity [%]": 97.5}
{"target": "Rho-associated protein kinase 1 (ROCK1, Homo sapiens, UniProt Q13464)", "remaining activity [%]": 103}
{"data": "Set 3", "organism": "Plasmodium berghei", "mode": "inhibitor", "cell line": "Huh-7", "strain": "liver stage", "tested at": "10 µM", "time": "24 h", "relative to": "untreated control"}
{"SMILES": "CC(=O)[C@@]1(O)CC[C@H]2[C@@H]3C[C@H](C)C4=CC(=O)C=C[C@]4(C)[C@@]3(F)[C@@H](O)C[C@@]21C", "infection rate [%]": 107}
{"SMILES": "COc1ccc2cc(CCC(C)=O)ccc2c1", "infection rate [%]": 105}
{"SMILES": "CCOC(=O)[N-]c1c[n+](N2CCOCC2)no1", "infection rate [%]": 92.5}
{"SMILES": "Cc1cc(=O)[nH]c(=S)[nH]1", "infection rate [%]": 91.7}
{"SMILES": "CC(C)[C@@H]1CC[C@@H](C)C[C@H]1O", "infection rate [%]": 110}
{"SMILES": "COc1ccccc1OCC(O)CO (centres unmarked)", "infection rate [%]": 77}
{"data": "Set 4", "SMILES": "CO[C@@H]1[C@H](N(C)C(=O)c2ccccc2)C[C@H]2O[C@]1(C)n1c3ccccc3c3c4c(c5c6ccccc6n2c5c31)C(=O)NC4", "observed": "enzyme activity", "mode": "inhibitor", "tested at": "1 µM"}
{"target": "Microtubule-associated serine/threonine-protein kinase 1 (MAST1, Homo sapiens, UniProt Q9Y2H9)", "inhibition [%]": 23}
{"target": "Phosphatidylinositol 4,5-bisphosphate 3-kinase catalytic subunit beta isoform (PIK3CB, Homo sapiens, UniProt P42338)", "inhibition [%]": 12}
{"target": "Macrophage colony-stimulating factor 1 receptor, autoinhibited (CSF1R, Homo sapiens, UniProt P07333)", "inhibition [%]": 89}
{"target": "Serine/threonine-protein kinase N2 (PKN2, Homo sapiens, UniProt Q16513)", "inhibition [%]": 63}
{"target": "Mitogen-activated protein kinase kinase kinase 10 (MAP3K10, Homo sapiens, UniProt Q02779)", "inhibition [%]": 82}
{"target": "Serine/threonine-protein kinase 24 (STK24, Homo sapiens, UniProt Q9Y6E0)", "inhibition [%]": 12}
{"target": "Inhibitor of nuclear factor kappa-B kinase subunit alpha (CHUK, Homo sapiens, UniProt O15111)", "inhibition [%]": 0}
{"target": "Phosphatidylinositol 4-kinase beta (PI4KB, Homo sapiens, UniProt Q9UBF8)", "inhibition [%]": 20}
{"target": "MAP kinase-activated protein kinase 5 (MAPKAPK5, Homo sapiens, UniProt Q8IW41)", "inhibition [%]": 24}
{"note": "Some of these lines once more (set 4):"}
{"target": "Mitogen-activated protein kinase kinase kinase 10 (MAP3K10, Homo sapiens, UniProt Q02779)", "inhibition [%]": 82}
{"target": "Serine/threonine-protein kinase 24 (STK24, Homo sapiens, UniProt Q9Y6E0)", "inhibition [%]": 12}
{"target": "Inhibitor of nuclear factor kappa-B kinase subunit alpha (CHUK, Homo sapiens, UniProt O15111)", "inhibition [%]": 0}
{"target": "Phosphatidylinositol 4-kinase beta (PI4KB, Homo sapiens, UniProt Q9UBF8)", "inhibition [%]": 20}
{"target": "MAP kinase-activated protein kinase 5 (MAPKAPK5, Homo sapiens, UniProt Q8IW41)", "inhibition [%]": 24}
